Measurements of several laboratories.
Parts stem from different laboratories: compare values within a part only.
Chain of UniProt P54760 (whole entry, looked up): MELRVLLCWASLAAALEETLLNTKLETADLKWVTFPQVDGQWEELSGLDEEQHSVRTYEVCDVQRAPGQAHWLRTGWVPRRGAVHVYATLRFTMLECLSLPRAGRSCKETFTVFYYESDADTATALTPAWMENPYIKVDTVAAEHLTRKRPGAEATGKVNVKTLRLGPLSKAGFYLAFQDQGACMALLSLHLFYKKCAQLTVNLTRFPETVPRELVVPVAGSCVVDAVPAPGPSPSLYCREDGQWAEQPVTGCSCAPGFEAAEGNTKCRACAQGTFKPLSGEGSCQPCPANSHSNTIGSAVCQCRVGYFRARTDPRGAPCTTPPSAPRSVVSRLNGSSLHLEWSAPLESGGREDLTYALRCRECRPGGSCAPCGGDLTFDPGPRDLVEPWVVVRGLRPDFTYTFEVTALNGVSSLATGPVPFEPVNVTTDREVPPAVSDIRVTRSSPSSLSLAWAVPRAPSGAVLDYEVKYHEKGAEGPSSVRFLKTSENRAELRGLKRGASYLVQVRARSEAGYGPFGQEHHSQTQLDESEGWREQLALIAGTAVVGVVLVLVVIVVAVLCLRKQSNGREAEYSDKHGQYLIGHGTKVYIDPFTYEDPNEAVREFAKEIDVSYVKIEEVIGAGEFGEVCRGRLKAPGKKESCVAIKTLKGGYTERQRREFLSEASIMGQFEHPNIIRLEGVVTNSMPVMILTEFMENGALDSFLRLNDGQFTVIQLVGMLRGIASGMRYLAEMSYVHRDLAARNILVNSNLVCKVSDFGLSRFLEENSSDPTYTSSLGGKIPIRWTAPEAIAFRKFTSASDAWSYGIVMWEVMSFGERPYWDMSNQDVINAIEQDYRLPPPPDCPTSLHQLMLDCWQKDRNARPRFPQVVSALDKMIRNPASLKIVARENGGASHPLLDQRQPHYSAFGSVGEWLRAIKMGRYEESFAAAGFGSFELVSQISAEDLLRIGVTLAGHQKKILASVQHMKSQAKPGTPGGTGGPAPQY
Chain of UniProt O15530 (whole entry, looked up): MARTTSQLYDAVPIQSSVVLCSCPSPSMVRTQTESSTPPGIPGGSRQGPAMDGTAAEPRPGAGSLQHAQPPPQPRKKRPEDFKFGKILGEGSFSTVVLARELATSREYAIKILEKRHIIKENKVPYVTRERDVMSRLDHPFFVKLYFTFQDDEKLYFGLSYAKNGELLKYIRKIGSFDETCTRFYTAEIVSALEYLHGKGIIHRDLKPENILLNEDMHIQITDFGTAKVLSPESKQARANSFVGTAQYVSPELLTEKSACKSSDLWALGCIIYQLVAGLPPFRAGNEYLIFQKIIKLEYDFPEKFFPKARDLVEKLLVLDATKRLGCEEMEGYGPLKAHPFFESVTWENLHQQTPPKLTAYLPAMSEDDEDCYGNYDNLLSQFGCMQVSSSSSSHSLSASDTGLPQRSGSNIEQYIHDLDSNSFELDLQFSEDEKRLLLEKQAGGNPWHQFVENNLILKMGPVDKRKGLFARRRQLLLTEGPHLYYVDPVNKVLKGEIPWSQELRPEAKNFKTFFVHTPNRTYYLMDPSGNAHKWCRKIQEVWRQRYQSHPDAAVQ
Chain of UniProt O95819 (whole entry, looked up): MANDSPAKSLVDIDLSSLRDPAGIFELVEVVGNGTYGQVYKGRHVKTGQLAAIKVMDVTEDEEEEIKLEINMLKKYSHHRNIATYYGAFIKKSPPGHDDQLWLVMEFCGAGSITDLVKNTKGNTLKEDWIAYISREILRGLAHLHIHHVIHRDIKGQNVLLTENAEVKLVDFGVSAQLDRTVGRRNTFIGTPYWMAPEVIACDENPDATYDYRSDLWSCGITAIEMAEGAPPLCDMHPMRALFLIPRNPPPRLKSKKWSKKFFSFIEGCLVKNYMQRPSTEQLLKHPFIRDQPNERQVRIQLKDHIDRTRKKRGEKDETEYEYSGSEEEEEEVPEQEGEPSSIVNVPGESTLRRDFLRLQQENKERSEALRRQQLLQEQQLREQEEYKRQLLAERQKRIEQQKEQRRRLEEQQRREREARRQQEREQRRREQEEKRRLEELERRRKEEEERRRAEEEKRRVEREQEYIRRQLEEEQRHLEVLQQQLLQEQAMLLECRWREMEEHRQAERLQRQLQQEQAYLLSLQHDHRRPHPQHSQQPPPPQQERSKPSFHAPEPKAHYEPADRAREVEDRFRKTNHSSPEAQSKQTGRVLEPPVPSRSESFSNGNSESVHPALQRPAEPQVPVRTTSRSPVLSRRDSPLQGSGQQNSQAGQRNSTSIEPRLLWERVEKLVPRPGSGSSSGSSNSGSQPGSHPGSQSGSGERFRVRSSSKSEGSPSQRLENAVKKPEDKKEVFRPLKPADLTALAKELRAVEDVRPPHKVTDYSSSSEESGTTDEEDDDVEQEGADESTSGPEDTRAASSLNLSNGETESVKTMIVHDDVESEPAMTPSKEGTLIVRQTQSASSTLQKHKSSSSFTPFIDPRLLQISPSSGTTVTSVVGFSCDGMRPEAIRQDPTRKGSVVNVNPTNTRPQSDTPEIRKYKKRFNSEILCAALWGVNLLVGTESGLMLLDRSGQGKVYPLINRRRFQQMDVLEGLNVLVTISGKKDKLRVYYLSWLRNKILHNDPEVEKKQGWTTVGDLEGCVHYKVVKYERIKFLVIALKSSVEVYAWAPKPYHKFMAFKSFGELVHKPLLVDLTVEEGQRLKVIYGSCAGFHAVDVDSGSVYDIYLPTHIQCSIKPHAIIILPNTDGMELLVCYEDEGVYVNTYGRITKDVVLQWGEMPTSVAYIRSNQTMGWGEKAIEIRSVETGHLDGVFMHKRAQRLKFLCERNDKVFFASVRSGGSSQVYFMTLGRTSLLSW
Chain of UniProt O75716 (whole entry, looked up): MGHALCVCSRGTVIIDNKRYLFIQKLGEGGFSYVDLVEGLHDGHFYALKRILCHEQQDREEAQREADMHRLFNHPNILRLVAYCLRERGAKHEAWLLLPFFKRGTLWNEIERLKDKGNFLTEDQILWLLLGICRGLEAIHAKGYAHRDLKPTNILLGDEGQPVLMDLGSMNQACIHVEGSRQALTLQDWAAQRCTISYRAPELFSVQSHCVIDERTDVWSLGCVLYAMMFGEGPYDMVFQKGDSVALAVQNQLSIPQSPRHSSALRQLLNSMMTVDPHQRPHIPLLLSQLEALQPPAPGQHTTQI
Chain of UniProt P54762 (whole entry, looked up): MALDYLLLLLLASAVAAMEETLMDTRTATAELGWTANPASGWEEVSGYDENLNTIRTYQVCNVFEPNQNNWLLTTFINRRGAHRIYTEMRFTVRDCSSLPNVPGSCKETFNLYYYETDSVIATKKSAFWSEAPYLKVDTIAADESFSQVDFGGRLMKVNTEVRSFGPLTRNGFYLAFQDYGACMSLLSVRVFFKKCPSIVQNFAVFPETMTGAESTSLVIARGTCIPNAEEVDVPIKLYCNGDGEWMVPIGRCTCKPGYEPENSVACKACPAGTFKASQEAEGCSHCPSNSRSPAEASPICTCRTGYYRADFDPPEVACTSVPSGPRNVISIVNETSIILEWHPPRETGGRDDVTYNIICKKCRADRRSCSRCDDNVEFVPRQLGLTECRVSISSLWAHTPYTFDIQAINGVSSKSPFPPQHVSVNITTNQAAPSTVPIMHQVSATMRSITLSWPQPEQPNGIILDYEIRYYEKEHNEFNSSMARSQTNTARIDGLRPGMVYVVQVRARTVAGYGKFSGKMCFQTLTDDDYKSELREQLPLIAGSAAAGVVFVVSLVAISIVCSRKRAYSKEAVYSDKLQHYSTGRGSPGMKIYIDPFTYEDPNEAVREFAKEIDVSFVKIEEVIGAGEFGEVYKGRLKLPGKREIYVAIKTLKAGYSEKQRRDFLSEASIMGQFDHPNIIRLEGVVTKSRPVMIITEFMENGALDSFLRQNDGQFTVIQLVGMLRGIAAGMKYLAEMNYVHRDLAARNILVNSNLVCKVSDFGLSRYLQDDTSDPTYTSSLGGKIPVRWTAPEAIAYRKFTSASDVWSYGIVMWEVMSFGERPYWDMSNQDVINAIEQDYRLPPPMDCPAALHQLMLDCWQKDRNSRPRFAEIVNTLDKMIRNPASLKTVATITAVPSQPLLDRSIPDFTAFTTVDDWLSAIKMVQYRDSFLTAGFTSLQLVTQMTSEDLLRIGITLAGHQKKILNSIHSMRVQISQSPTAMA
Chain of UniProt Q16644 (whole entry, looked up): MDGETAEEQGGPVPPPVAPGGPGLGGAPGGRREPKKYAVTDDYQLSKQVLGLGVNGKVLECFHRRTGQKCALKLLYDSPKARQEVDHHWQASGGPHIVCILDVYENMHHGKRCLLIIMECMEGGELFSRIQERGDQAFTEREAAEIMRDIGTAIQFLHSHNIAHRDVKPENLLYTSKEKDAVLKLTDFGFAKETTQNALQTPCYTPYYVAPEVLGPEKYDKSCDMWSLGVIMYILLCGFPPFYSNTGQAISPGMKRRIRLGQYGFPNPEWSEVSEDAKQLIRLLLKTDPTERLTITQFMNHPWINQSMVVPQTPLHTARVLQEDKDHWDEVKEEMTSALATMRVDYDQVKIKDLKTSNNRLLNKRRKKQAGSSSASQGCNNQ

Series 1 — read-out: ligand displacement; concentration: 10 µM; endpoint: inhibition
Target: Histamine H4 receptor (HRH4, Homo sapiens, UniProt Q9H3N8)
Chain of UniProt Q9H3N8 (whole entry, looked up): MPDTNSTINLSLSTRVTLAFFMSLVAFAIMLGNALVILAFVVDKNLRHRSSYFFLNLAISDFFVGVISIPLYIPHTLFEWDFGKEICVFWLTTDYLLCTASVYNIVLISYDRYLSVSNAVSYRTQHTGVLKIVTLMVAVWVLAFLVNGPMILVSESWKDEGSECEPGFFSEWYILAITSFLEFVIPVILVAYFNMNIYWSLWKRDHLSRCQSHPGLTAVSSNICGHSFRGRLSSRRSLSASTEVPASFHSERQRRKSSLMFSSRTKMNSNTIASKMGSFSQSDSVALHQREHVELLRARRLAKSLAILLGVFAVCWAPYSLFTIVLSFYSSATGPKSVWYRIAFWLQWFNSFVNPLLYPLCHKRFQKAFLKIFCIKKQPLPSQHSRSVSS
CC1CCN(c2ccnc(NCc3cn(C)cn3)n2)CC1: -31.3%
C[C@@H]1CN(c2cc(-c3n[nH]c4ccc(OC5(C)CC5)cc34)ncn2)C[C@H](C)O1: -19.8%
Cn1cc(Cl)c2c(Oc3c(F)cc(Nc4cc(Cl)nc(N)n4)cc3F)ccnc21: -9.04%
c1ccc(N2CCN(Cc3nc4ccccc4[nH]3)CC2)nc1: -3.28%
Nc1nc(NCc2ccccc2)nc(-c2ccccc2CO)n1: 8.3%
CN(C)CC#Cc1ccc(OCCCc2sc(N3CCc4cccc(C(=O)Nc5nc6ccccc6s5)c4C3)nc2C(=O)O)c(F)c1: 6.5%
CCC(=NO)C(C)=Cc1ccc(F)c(C)c1: 10.8%
CC(=O)N1CCC(c2ccc(C(=O)NC3=NCCN3)cc2C(F)(F)F)CC1: 9.81%
O=C(NCCCC1CCCCC1)c1ccc(CNC(=O)c2cnn(-c3ccccc3)c2C(F)(F)F)cc1: -25.6%
Cn1nc(C(=O)NCc2ccc(C(=O)O)cc2)cc1-c1ccc2[nH]ccc2c1: -6.14%
CCc1ccccc1C(=O)Nc1n[nH]c2c(C)c(F)c(C3C(C#N)=C(C)N(C)C(C)=C3C#N)cc12: -10.8%
CCC(F)(F)c1cc(N2CCC(S(C)(=O)=O)CC2)nc2sc(C(N)=O)c(N)c12: -1.66%
Cc1noc([C@H]2C[C@@H](c3ccc(C(F)(F)F)cc3)CN(C(=O)N3CCS(=O)(=O)C3)C2)n1: -2.74%
O=C(NS(=O)(=O)c1ccc(NCC2CCOCC2)c([N+](=O)[O-])c1)c1ccc(N2CCN(Cc3ccc(C(F)(F)F)cc3-c3ccc(Cl)cc3)CC2)cc1Oc1cnc2[nH]ccc2c1: -2.4%

Series 2 — SMILES: O=c1cc(N2CCOCC2)oc2c(-c3ccccc3)cccc12; read-out: enzyme activity; action: inhibitor; concentration: 0.5 µM; baseline: control; endpoint: remaining activity
Cyclin-dependent kinase 1, with cyclin B (CDK1, Homo sapiens, UniProt P06493): 115%
Cyclin-dependent kinase 6, with cyclin D3 (CDK6, Homo sapiens, UniProt Q00534): 101%
Ephrin type-B receptor 1 (EPHB1, Homo sapiens, UniProt P54762): 95.9%
Tyrosine-protein kinase Blk (BLK, Homo sapiens, UniProt P51451): 120%
Serine/threonine-protein kinase 16 (STK16, Homo sapiens, UniProt O75716): 97.5%
Tyrosine-protein kinase receptor UFO (AXL, Homo sapiens, UniProt P30530): 110%
Ribosomal protein S6 kinase alpha-5 (RPS6KA5, Homo sapiens, UniProt O75582): 99.5%
MAP kinase-activated protein kinase 3 (MAPKAPK3, Homo sapiens, UniProt Q16644): 101%
Mitogen-activated protein kinase kinase kinase kinase 4 (MAP4K4, Homo sapiens, UniProt O95819): 93.5%
Tyrosine-protein kinase Srms (SRMS, Homo sapiens, UniProt Q9H3Y6): 103%
Calcium/calmodulin-dependent protein kinase type II subunit beta (CAMK2B, Homo sapiens, UniProt Q13554): 110%
Dual specificity tyrosine-phosphorylation-regulated kinase 3 (DYRK3, Homo sapiens, UniProt O43781): 100%
Cyclin-dependent kinase 4, with cyclin D3 (CDK4, Homo sapiens, UniProt P11802): 96.2%
Serine/threonine-protein kinase 17A (STK17A, Homo sapiens, UniProt Q9UEE5): 93.5%
3-phosphoinositide-dependent protein kinase 1 (PDPK1, Homo sapiens, UniProt O15530): 104%
Ephrin type-A receptor 4 (EPHA4, Homo sapiens, UniProt P54764): 99.2%
Testis-specific serine/threonine-protein kinase 2 (TSSK2, Homo sapiens, UniProt Q96PF2): 91.4%
Homeodomain-interacting protein kinase 2 (HIPK2, Homo sapiens, UniProt Q9H2X6): 122%
Phosphorylase b kinase gamma catalytic chain, skeletal muscle/heart isoform (PHKG1, Homo sapiens, UniProt Q16816): 90.1%
Serine/threonine-protein kinase WNK3 (WNK3, Homo sapiens, UniProt Q9BYP7): 89.2%
Ephrin type-B receptor 4 (EPHB4, Homo sapiens, UniProt P54760): 99.5%
Tyrosine-protein kinase ABL1 (ABL1, Homo sapiens, UniProt P00519): 99.2%
Homeodomain-interacting protein kinase 4 (HIPK4, Homo sapiens, UniProt Q8NE63): 102%

Series 3 — species: human; matrix: microsomes or S9; concentration: 2 µM; time: 0.5 h; endpoint: remaining compound
CCc1c(C(=O)NCC(OC)C(C)(C)C)cnc2c1c(=O)n(C)c(=O)n2C (centres unmarked): 4.43%
CC1=C2C(CCS2(=O)=O)CC2(C1)C(=O)OC(C)(C)OC2=O (centres unmarked): > 99%
CCOC(=O)N1CCN(CC(O)COc2ccc(C(C)C)c(C)c2)CC1 (centres unmarked): > 100%
Cc1sc2[nH]c(=O)n3nc(-c4ccncc4)nc3c2c1C: 23.1%
CC1CC(N(C(=O)Nc2ccccc2)c2ccccc2)c2ccccc2N1C(=O)c1ccco1 (centres unmarked): 1.28%
O=S(=O)(c1ccccc1)n1ccc2ncccc21: 29.7%
Cc1ccn(S(=O)(=O)c2cc(C)c(C)cc2Br)n1: 7.39%

Series 4 — endpoint: patients with adverse event
Compound: CC(C)n1cnc(-c2ccc(F)cc2)c1-c1ncc(C(=O)Nc2ccc(N3CCN(C)CC3)cc2)[nH]1
Phase 2a trial, measured: blood fibrinogen increased; human, idiopathic pulmonary fibrosis; 60 mg once daily, grade 3: 0%
Phase 2a trial, measured: blood fibrinogen increased; human, idiopathic pulmonary fibrosis; all compound arms total, grade 2: 0%
measured: periorbital oedema, grade 4; idiopathic pulmonary fibrosis patients; dose not given, all compound arms pooled: 0%
Phase 2a trial, measured: haemorrhoids; human, idiopathic pulmonary fibrosis; 60 mg once daily, grade 5: 0%
Phase 2a trial, measured: blood glucose increased; human, idiopathic pulmonary fibrosis; 30 mg once daily, grade 4: 0%
Phase 2a trial, measured: hypoalbuminaemia; human, idiopathic pulmonary fibrosis; 30 mg once daily, grade 4: 0%
Phase 2a trial, measured: haemorrhoids; human, idiopathic pulmonary fibrosis; 60 mg once daily, grade 1: 0%
Phase 2a trial, measured: eosinophilia myalgia syndrome; human, idiopathic pulmonary fibrosis; 30 mg once daily, grade 3: 0%
Phase 2a trial, measured: haemorrhoids; human, idiopathic pulmonary fibrosis; all compound arms, grade 2: 0%

Repeated from above (series 4):
Phase 2a trial, measured: blood fibrinogen increased; human, idiopathic pulmonary fibrosis; 60 mg once daily, grade 3: 0%
Phase 2a trial, measured: blood fibrinogen increased; human, idiopathic pulmonary fibrosis; all compound arms total, grade 2: 0%
measured: periorbital oedema, grade 4; idiopathic pulmonary fibrosis patients; dose not given, all compound arms pooled: 0%
Phase 2a trial, measured: haemorrhoids; human, idiopathic pulmonary fibrosis; 60 mg once daily, grade 5: 0%
Phase 2a trial, measured: blood glucose increased; human, idiopathic pulmonary fibrosis; 30 mg once daily, grade 4: 0%
